Experimental data collected from several papers.
Numbered parts are unrelated; each lists some results of a single study. Changes are numbered by the printed parent chain.

Study 1
Target: CCNF, cyclin fold, Cln2 fusion (human)
Technique: yeast growth competition, sequencing
Sample: yeast
Setting: strong parent motif
Baseline: not given
Direction: higher = stronger binding
Starting sequence: ASZ1 docking peptide (human); GFGFLLFICKLTF
Variant | normalised enrichment score
I8A | 1.67
L6A | 2.46
L11A | 2.74
G3A | 2.53
F2A | 2.19
K10A | 1.77
C9A | 2.53

Study 2
Target: Ras GTPase-activating protein-binding protein 1, full length (G3BP1, Homo sapiens, UniProt Q13283)
Sequence of UniProt Q13283 (whole entry, looked up): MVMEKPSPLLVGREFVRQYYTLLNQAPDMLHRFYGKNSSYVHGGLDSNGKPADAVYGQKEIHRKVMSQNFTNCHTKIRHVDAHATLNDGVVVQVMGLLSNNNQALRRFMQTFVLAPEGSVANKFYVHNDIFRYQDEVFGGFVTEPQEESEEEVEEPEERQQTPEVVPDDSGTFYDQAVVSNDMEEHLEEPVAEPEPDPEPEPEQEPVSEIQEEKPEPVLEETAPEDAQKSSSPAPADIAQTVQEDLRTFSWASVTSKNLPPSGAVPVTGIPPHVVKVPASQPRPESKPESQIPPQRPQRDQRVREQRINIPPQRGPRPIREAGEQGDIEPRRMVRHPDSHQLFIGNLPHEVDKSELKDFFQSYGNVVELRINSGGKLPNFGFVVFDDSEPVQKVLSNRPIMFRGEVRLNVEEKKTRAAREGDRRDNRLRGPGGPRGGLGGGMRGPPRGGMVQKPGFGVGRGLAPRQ
Technique: RNA Bind-n-Seq
Molecule type: RNA
Sample: in vitro
Concentration: 200 nM
Setting: whole 134-nt RNA, ends assumed
Together with: 150 mM KCl
Baseline: input library
Direction: higher = stronger binding
Shared flanks, not repeated: GGGAGUUCUACAGUCCGACGAUC … UGGAAUUCUCGGGUGUCAAGG
Strand | log2 enrichment
UCCUGUGCUACACAUCGUAUGUACCGAAUCGGGGUUUUUUUGGGGUUUGGGGAAAGGGGAAAGUAUUAUGUUACGCCGUUCGGAUCUGCA | 0.893
AAGUCCUGUGCUACACAUCGUAUGUACCGAAUCGGGGUGGGGAGGGGUUUUUGGGGAAAGUAUUAUGUUACGCCGUUCGGAUCUGCACUU | 0.574
UAACUUUAGAGGAGGAUCUGAUGGAUAUGGCCGUGGACGUGGAUUUGGGGAUGGCUAUAAUGGGUAUGGAGGAGGACCUGGAGGUGGCAA | 0.383
UAACUUUAGAGGAGGAUCUGAUGGAUAUGGCAGUGGACGUGGAUGUGGGGAUGGCUAUAAUGGGUAUGGAGGAGGACCUGGAGGUGGCAA | 0.509
ACUAUGCAGGUGGGCAUCUUUGGGAAGUGGGGCAAGGGGGGGAUAGGGAGGGGGGUAACACUUUGGGAACAGGUGGUCCCAGGUCGUUUC | 1.28
GUCCUGUGCUACACAUCGUAUGUACCGAAUCGGGGUUUUUGGGUUUUUGGUUUUUGGGGAAAGUAUUAUGUUACGCCGUUCGGAUCUGCA | -0.502
ACCAUGCAGGUGGGCAUCUUUGGGAAGUGGGGCAAGGGGGGGAUAGGGAGGGGGGUCACACUUUGGGAACAGGUGGUCCCAGGUCGUUUC | 1.43
AGUCCUGUGCUACACAUCGUAUGUACCGAAUCAAAUUUUUAAACCCAAACCCCCAAAAAAGUAUUAUGUUACGCCGUUCGGAUCUGCACU | -0.484
ACCAUGCAGGUGGGCAUCUUUGGGAAGUGGGGCAAGGGGGGGAUAGGGAGGGGCGUAACACUUUGGGAACAGGUGGUCCCAGGUCGUUUC | 1.21
CCUCAAGUCCUGUGCUACACAUCGUAUGUACCGAAUCGGGUGGGUGGGUGGGAAAGUAUUAUGUUACGCCGUUCGGAUCUGCACUUCCAG | 1.27
UCCUGUGCUACACAUCGUAUGUACCGAAUCGGAAAAAAAGGUUUUUUUGGAAAAAAAGGAAAGUAUUAUGUUACGCCGUUCGGAUCUGCA | -0.961
CCUCAAGUCCUGUGCUACACAUCGUAUGUACCGAAUCGGGGUGGUGGGGUGGAAAGUAUUAUGUUACGCCGUUCGGAUCUGCACUUCCAG | 0.566
UAACUUUAGAGGAGGAUCUGAUGGAUAUGGCAGUGGACGUGGAUUUGGGGAUGGCUAUAAUGGGUAUGGAGGAGUACCUGGAGGUGGCAA | 0.169
AAGUCCUGUGCUACACAUCGUAUGUACCGAAUCGGAAAAAAAGGUUUGGUUUUUGGAAAGUAUUAUGUUACGCCGUUCGGAUCUGCACUU | -1.41

Study 3
Target: Interferon regulatory factor 7, full length, phosphomimetic (IRF7, Homo sapiens, UniProt Q92985, residues 1-503, S471D/S472D/S475D/S476D/S477D/S483D/S484D/S487D)
Technique: protein-binding microarray
Molecule type: double-stranded DNA, one strand shown
Sample: in vitro
Concentration: 2200 nM top
Setting: 60-bp whole probe
Together with: salmon DNA 0.4 mg/ml
Baseline: random background probes
Direction: higher = stronger binding
Shared flanks, not repeated: GCCTAGCAC … GTCTTGATTCGCTTGACGCTGCTG
Construct (chain): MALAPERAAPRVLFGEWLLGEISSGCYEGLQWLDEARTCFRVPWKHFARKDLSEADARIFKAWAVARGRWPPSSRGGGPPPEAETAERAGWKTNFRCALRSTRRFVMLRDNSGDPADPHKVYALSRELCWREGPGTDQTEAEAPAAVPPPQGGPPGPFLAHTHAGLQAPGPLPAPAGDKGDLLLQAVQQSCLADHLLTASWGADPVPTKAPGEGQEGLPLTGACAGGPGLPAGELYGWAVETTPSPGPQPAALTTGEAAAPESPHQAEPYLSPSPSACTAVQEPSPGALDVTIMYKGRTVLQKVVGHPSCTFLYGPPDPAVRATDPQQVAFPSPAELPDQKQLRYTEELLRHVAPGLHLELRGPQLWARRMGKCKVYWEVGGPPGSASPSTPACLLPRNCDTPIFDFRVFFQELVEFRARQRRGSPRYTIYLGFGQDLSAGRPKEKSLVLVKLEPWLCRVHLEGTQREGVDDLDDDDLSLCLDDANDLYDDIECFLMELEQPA
Strand | fitted relative affinity [z-score]
TTAAGTATCCTTCTCCTTTAGTGCTAG | 1.3
TCATCATTGCCTATTTTACTGTGCTAG | 1.48
GACGGTAGCCTTTTCCTGACGTGCTAG | 0.5
TTATGTTTCGGTCTCGGTTAGTGCTAG | 6.06
TCATATATTTGCTTCAGACTGTGCTAG | 1.23
TCACTTATCCTATCAGTACTGTGCTAG | 1.8
CTCCTCTCTGGGTCAAAGGTGTGCTAG | 0.291
TTAGTACTGGGGTTTCGATTAGTGCTA | 2.56
GACGGACTGCTTTTCCCGACGTGCTAG | 0.686
GACGGTTCCGACACTGGGGACGTGCTA | -0.245
TTAGGACTGGATATCGGTTAGTGCTAG | -0.184
TTAGAACTGGGGACTGAATTAGTGCTA | -0.397
CACGGACTGCTTTTCCTGACGTGCTAG | 0.671
TTAGGTCTTGGACTGGGTTAGTGCTAG | -0.331
GACGATTTCAGTTCCGAGCCGTGCTAG | 1.57
GACGGTCTCCTTCTCCTGATGTGCTAG | 0.961
TTAGGATTCGACTATCGGTTAGTGCTA | 0.512
TTAGATCTCAGTTTCGATTGGTGCTAG | 7.97
GGGATGGTGGGGCTCCTCCTGTGCTAG | -0.915
GACGGTTTCGGGTAACGGGACGTGCTA | 5.6
GACGGTCTCGGGATCGGGACGTGCTAG | -0.419
TCAGTTTCCAAATTGTCACTGTGCTAG | 3.51
GACGATATCAGTTTCTAGACGTGCTAG | 1.52
ACACATCTCACTCTAATCTCGTGCTAG | 1.69
GAGGAACTGAGTCTCGAGACGTGCTAG | -0.351

Study 4
Target: ABI1, truncated, D143A, DHFR fusion (Arabidopsis thaliana)
Technique: DHFR PCA, deep sequencing
Sample: yeast
Setting: methotrexate growth selection, single substitutions
Together with: (+)-ABA 2500 µM
Baseline: wild-type fitted maximum
Direction: higher = stronger binding
Starting sequence: PYL1, truncated, DHFR fusion (Arabidopsis thaliana); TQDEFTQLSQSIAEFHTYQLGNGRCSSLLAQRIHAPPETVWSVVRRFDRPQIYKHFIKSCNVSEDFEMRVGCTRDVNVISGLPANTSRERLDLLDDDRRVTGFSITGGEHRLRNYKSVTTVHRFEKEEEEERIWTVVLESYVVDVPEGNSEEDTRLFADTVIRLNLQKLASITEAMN
Variant | relative binding score
T135E | 3.65%
F157I | 89.6%
Q19L | 97.5%
I105H | 15.8%
F15N | 92.6%
G102S | 104%
G23R | 98.5%
S27H | 96.7%
L20K | 97.6%
E129T | 105%
T160F | 94.8%
L166C | 53.5%
D3R | 98%
N165W | 40.2%
L156I | 95.8%
G23Y | 90.3%
D144C | 86.6%
A30N | 98.5%
E151L | 94%
I105A | 88.3%
T39S | 101%

Study 5
Target: RING finger protein unkempt homolog, zinc fingers 1-6, GST-SBP tag (UNK, Homo sapiens, UniProt Q9C0B0, residues 30-357)
Technique: RNA Bind-n-Seq
Molecule type: RNA
Sample: in vitro
Concentration: not given
Setting: RNA with constant flanks, ends assumed
Baseline: input RNA pool
Direction: higher = stronger binding
Shared flanks, not repeated: GGGAGUUCUACAGUCCGACGAUC … CAACAGAGGAUUGAGCAUCA
Residues (chain): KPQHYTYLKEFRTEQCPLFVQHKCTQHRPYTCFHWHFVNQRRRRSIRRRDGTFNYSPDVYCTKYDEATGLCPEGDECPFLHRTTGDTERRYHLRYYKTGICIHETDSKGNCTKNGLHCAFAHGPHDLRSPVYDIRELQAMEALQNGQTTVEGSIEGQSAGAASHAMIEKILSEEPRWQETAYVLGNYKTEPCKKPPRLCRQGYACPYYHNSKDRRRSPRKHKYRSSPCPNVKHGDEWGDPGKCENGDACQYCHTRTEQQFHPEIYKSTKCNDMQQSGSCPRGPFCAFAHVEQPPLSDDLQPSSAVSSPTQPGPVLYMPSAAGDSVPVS
Strand | bound/input enrichment [ratio]
GACUAUACAAUCCCAGAUGAGUAUAGAAUUGGACCAUAUCAGCCCAAUGUUCCUGUUGGUACCGACUAUGUGAUACCUAAAACAGGGUUUUACUGUAAGCUGUGUUCACUCUUUUAUACA | 0.0928
CUAAUCCCCUUCGUUGCUCCACCACUGGUCAUGCUGAUGACAAAAACUUAUAUUCCCAUAUCCGCUUUUACUCAGAUGGCUUAUGGAGCCAGUUUCCUAUCUUUCUUGGGUGGGAUCAGA | 0.256
AAAGGGAAAUCAGUCCGUGUUCAUGUACAGUUUUUUGAUGACAGCCCAACAAGGGGCUGGGUCCGCAAAAGGCUUUUAAAGCCAUAUACAGGUUCAAAAUCAAAGGAAGCCCAGAAGGGA | 0.214
UUUUGGAAACAGUUCAGGCUUUGGGGUGAGCCUGUCAAUCUUCGUGAACAACAUGAUGCUUCCGAGUUCUUUAAUUCUUUGGUGGAUAGUUUAGAUGAAGCUUUAAAAGCCUUAGGGCAU | 1.72
AGGGAUAUUGGUGCUGGAAAGGGAAAAUACUAUGCUGUCAAUUUUCCCAUGAGAGAUGGUACCGAUGAUGAAUCAUAUGGACAAAUUUUUAAGCCUAUCAUCUCAAAAGUGAUGGAGAUG | 0.18
GAUGCAGUUAAGGAAGAAAAUCUGAAGCUAAAAUCAGAAAACCAAGUUCUUGGACAAUAUACCGAAAAUCUCAUGUCAGCUUCUAGUGUUUUUCAAACAACUGACACAAAAAGCAAAAGA | 0.0768
UUCACCACUCCUGGGUGCAUGAUUGAGGGUGAAGCAUCCACCAGCACUUCAAGGGGUCCACCGUAUUUUUUUUUUUGCUGCCUCAAAGUCCCCAAAGCCUUCGAGCAGAAGUGGCAGUAG | 0.628
CUACAAGAUGUUCUGCAGUUGUUCAAGUUCUUUUGUGUUUUGUGGACCUAUGGUUCCCGCCUUUCAAAUCCACUUAACUGCACUGUGAAGUCAGAGCUGCAGACUCAAGCUCUUUACAUA | 0.12
UUUUCUUUUUCUUUUUUCUUUCUUUUUUUUUUUUUUUUUUUUUUUGAGUUGUUGUUUGUUUUCCGAUCCACAGUACAUGAGAAUCCUUUUUUGACAAGCCUUGGAAAGCUGACACUGUCU | 1.92
UCCCAGCCCCUCAUUAGAUUGUUUUCUUCCCAGAGCCCAGGGUCGUGAUAUAUACAUCUAAACCGCGUUUUGCAUUAUUUCUAGAUGAGUGCAACUGUCAAAGCAAUAUGGGUUCACUGG | 1.07
GGAUUCUAUGAGUUUCUAAAUUGGUUUGAUGAAAGAGCAUGGUACCCACUGGGAAGAACCGUGGGUGGCACCGUUUACCCAGGGUUGAUGAUAACAGCUGGCCUUAUUCAUUGGAUUUUA | 0.134

For quick reference, copied from above (study 3):
Strand | fitted relative affinity [z-score]
TCACTTATCCTATCAGTACTGTGCTAG | 1.8
GACGGTCTCGGGATCGGGACGTGCTAG | -0.419
TTAGTACTGGGGTTTCGATTAGTGCTA | 2.56
TTAGGTCTTGGACTGGGTTAGTGCTAG | -0.331
GACGATTTCAGTTCCGAGCCGTGCTAG | 1.57
TCAGTTTCCAAATTGTCACTGTGCTAG | 3.51
